Published values pooled from the literature.
Numbered parts are unrelated; each lists some results of a single study.

Study 1 — method: universal PBM; molecule type: double-stranded DNA, one strand shown; sample: in vitro; tested at: not given; direction: higher = stronger binding; measurement: E-score
Target: Sal-like protein 4, full length isoform B (SALL4, Homo sapiens, UniProt Q9UJQ4-2, residues 1-616)
Notes: 8-mer, flanks averaged, mean of replicates
Target sequence (chain): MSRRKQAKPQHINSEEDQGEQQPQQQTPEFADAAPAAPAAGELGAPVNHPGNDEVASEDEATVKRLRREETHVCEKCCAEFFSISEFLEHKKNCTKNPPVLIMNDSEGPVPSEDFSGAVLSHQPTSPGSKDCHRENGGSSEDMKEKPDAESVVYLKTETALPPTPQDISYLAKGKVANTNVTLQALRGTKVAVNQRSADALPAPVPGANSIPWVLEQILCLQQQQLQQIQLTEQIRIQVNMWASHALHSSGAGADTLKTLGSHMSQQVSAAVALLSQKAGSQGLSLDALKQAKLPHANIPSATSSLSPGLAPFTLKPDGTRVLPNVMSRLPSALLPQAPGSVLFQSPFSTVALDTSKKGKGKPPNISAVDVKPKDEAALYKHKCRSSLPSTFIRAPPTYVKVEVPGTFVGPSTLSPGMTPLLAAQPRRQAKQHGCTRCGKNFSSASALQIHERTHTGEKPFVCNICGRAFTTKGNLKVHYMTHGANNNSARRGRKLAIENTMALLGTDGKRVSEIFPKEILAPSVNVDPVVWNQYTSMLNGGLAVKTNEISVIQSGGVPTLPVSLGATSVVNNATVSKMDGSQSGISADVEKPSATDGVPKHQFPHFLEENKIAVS
CCCACATA: 0.13
CTGGGAAC: -0.203
GAAGTGCC: -0.132
AGCGCGTC: -0.212

Study 2 — method: protein-binding microarray; molecule type: double-stranded DNA, one strand shown; sample: in vitro; tested at: 940 nM top; notes: 60-bp whole probe; with: salmon DNA 0.4 mg/ml; baseline: random background probes; direction: higher = stronger binding; measurement: fitted relative affinity; all sequences stand within: GCCTAGCAC … GTCTTGATTCGCTTGACGCTGCTG
Target: Interferon regulatory factor 5, full length, phosphomimetic (IRF5, Homo sapiens, UniProt Q13568-2, residues 1-514, S451D/S453D/S456D/S462D)
TTAGAACTGGGGTATTGATTAGTGCTA: 0.505 z-score
TCATTTCTACGTCTGATACTGTGCTAG: 0.525 z-score
TTAGAGTTCGGGTATCGATTAGTGCTA: 2.65 z-score
GAGGATCTCAGTTTCGAGACGTGCTAG: 3.29 z-score
TTAGATATCGGGTTTCTATTAGTGCTA: 1.5 z-score
TTAGATTTCAGGACTGGATTAGTGCTA: -0.111 z-score

Study 3 — method: protein binding microarray; molecule type: double-stranded DNA, one strand shown; sample: in vitro; tested at: not given; baseline: not given; direction: higher = stronger binding; measurement: E-score
Target: Histone acetyltransferase KAT6A, winged helix 1, GST fusion (KAT6A, Homo sapiens, UniProt Q92794, residues 1-85)
Notes: 8-mer, flanks averaged, mean of 2 arrays, mostly near background
Target sequence (chain): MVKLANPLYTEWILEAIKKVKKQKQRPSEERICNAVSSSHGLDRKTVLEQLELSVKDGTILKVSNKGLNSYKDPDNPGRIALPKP
CAGGGTTC: -0.122
GCGGCAGC: 0.353
CGAGGAGC: -0.0533
TGATCAAA: -0.0363

Mixed results
PhoQ, residues 284 288 289 292 302 303 SACGEM  fold induction (PhoP, residues 12 14 15 18 19 VQALL (Escherichia coli, UniProt P23836); Sort-seq, refers to: YFP reporter; E. coli; PhoQ-PhoP variant library, with: 10 µM Mg2+; baseline: high Mg2+ state, higher = stronger signaling): 10.5

For quick reference, copied from above (study 1):
CCCACATA: 0.13
